Results collected from several papers.
Each numbered part is a random draw from the data of one study; scales do not carry over between parts. Values joined by “and” are separate records of one study, mostly repeats; a detail may differ.
Sequence of UniProt P42336 (whole entry, unmodified, looked up): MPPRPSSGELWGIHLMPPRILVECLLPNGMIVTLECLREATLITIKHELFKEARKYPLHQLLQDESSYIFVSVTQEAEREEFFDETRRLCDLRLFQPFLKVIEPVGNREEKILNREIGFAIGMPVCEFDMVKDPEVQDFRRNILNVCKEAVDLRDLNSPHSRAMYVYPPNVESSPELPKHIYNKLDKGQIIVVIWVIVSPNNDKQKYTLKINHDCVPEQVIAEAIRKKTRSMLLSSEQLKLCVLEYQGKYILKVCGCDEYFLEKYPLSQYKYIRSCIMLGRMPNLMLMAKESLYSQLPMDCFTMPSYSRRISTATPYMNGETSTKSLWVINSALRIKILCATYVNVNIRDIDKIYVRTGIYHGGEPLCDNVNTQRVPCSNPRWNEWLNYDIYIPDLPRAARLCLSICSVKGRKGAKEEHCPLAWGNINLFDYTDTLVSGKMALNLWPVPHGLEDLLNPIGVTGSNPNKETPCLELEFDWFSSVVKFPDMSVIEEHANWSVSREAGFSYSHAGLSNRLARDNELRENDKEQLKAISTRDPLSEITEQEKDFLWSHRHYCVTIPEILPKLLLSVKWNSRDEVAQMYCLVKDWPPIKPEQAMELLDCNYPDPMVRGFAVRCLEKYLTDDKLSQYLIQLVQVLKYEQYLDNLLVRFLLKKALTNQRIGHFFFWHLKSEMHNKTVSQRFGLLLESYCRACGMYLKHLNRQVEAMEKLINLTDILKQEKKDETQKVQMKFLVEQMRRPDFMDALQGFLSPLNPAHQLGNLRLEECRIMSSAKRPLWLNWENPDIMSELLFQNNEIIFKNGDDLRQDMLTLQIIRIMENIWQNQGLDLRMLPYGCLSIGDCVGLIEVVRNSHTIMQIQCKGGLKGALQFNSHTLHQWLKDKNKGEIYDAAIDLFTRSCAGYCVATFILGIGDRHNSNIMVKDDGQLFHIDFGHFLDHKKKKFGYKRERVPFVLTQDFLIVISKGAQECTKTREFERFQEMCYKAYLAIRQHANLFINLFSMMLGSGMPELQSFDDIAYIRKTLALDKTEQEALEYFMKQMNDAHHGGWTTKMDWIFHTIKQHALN
Sequence of UniProt P16234 (whole entry, looked up): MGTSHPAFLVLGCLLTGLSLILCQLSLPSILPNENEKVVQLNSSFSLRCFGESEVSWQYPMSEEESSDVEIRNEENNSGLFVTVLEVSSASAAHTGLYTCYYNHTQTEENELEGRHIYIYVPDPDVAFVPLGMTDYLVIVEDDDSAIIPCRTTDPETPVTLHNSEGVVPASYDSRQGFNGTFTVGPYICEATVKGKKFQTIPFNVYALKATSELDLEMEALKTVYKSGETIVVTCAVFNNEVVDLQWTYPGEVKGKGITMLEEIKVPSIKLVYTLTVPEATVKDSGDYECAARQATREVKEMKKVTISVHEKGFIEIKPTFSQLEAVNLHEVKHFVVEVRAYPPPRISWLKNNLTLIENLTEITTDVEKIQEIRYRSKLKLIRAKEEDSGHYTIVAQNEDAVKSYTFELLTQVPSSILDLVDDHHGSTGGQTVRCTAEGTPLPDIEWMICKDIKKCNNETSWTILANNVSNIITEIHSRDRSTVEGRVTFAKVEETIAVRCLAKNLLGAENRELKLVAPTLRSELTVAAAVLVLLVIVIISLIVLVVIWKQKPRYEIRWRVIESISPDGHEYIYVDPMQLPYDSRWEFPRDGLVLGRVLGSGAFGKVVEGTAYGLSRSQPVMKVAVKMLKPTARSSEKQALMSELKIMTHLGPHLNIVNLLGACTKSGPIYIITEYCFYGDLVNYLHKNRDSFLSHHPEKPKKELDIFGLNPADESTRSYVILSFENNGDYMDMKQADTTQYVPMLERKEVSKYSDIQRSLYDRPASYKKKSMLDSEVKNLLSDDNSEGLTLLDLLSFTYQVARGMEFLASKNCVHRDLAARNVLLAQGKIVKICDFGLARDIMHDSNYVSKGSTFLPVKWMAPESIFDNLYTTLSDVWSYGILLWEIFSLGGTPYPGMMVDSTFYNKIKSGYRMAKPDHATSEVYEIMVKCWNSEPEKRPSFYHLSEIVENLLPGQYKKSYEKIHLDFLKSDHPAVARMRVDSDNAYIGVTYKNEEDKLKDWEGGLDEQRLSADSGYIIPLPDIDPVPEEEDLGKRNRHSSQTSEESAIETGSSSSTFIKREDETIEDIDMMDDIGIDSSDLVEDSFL
Sequence of UniProt P10721 (whole entry, looked up): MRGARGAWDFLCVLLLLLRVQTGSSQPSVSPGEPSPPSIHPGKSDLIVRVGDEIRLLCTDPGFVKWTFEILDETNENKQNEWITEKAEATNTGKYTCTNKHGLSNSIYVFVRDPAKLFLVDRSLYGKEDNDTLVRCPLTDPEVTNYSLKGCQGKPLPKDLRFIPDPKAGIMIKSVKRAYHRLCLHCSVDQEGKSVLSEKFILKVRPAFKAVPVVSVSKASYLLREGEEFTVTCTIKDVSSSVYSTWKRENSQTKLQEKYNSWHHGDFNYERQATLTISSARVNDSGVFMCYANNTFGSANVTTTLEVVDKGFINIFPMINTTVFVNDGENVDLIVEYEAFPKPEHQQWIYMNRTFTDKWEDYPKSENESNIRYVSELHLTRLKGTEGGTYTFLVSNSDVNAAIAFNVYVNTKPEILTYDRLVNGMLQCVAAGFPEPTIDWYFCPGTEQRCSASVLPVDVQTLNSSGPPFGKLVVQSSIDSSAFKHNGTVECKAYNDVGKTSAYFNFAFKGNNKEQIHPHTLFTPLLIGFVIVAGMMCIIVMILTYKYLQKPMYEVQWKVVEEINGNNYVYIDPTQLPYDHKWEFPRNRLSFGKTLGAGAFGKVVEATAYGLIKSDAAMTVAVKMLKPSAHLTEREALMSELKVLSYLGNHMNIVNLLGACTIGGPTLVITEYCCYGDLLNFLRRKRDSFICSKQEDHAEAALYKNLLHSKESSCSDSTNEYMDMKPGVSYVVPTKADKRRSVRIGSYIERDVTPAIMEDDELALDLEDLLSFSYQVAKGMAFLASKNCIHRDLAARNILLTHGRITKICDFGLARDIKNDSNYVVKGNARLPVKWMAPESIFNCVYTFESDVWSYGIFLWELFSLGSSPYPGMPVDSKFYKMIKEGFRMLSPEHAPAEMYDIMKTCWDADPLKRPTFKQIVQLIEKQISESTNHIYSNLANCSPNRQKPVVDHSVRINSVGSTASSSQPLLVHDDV

Set 1
Organism: Plasmodium berghei
Action: inhibitor
Cell line: Huh-7
Strain: liver stage
Concentration: 10 µM
Time: 24 h
Relative to: untreated control
Measurement: infection rate
CC(CCc1ccccc1)NCC(O)c1ccc(O)c(C(N)=O)c1 (centres unmarked): 89.3%
CCN(CCCCOC(=O)c1ccc(OC)c(OC)c1)C(C)Cc1ccc(OC)cc1 (centres unmarked): 76.5%
COc1c2occc2cc2ccc(=O)oc12: 94%
Nc1cc(N2CCCCC2)nc(N)[n+]1[O-]: 102%
NS(=O)(=O)c1cc2c(cc1C(F)(F)F)NCNS2(=O)=O: 106%

Set 2
SMILES: Cc1ccc(NC(=O)c2ccnc(C(F)(F)F)c2)cc1-c1cc(OCCO)nc(N2CCOCC2)c1
Technique: competitive binding panel
Concentration: 1 µM
Relative to: vehicle
Measurement: remaining binding
PIK3CA (Homo sapiens, UniProt P42336, H1047Y): 74%
KIT (Homo sapiens, UniProt P10721): 92%
PDGFRA (Homo sapiens, UniProt P16234): 72%

Set 3
Target: Eukaryotic initiation factor 4A-III (Homo sapiens, UniProt P38919)
Sequence of UniProt P38919 (whole entry, looked up): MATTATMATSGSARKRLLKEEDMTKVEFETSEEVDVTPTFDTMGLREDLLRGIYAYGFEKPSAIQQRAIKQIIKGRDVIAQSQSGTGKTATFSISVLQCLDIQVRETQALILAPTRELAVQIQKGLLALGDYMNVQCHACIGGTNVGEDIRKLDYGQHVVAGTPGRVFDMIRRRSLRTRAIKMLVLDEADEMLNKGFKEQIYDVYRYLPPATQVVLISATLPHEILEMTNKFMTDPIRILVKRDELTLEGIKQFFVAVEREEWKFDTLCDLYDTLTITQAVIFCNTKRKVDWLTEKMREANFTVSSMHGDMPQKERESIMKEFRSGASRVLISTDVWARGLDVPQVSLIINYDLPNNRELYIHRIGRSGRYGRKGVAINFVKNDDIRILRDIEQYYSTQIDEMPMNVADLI
Effect on: RNA clamping
Technique: fluorescence polarization
Concentration: concentration not given
Notes: mean of two replicates
Together with: FAM-labelled poly r(AG)8 RNA
Measurement: fluorescence polarization change
COc1ccc([C@@]23Oc4cc(OC)cc(OC)c4[C@]2(OC)c2nc(-c4ccccc4)n(C)c(=O)c2[C@H]3c2ccccc2)cc1: 1.6 mP
COc1ccc([C@@]23Oc4cc(OC)cc(OC)c4[C@]2(O)C=C(C(=O)c2ccco2)[C@H]3c2ccccc2)cc1: 24.9 mP
COC(=O)[C@H]1C(=O)[C@@]2(NCc3nccn3C)c3c(OC)cc(OC)cc3O[C@@]2(c2ccc(OC)cc2)[C@@H]1c1ccccc1: 3.4 mP
COc1ccc([C@@]23Oc4cc(OC)cc(OC)c4[C@]2(O)[C@H](O)[C@H](C(=O)N(C)C)[C@H]3c2ccccc2)cc1: 38 mP

Set 4
Target: Alpha-1A adrenergic receptor (ADRA1A, Homo sapiens, UniProt P35348)
Effect on: binding
Technique: radioligand binding
Concentration: 10 µM
Measurement: inhibition
Construct (P35348 1-466): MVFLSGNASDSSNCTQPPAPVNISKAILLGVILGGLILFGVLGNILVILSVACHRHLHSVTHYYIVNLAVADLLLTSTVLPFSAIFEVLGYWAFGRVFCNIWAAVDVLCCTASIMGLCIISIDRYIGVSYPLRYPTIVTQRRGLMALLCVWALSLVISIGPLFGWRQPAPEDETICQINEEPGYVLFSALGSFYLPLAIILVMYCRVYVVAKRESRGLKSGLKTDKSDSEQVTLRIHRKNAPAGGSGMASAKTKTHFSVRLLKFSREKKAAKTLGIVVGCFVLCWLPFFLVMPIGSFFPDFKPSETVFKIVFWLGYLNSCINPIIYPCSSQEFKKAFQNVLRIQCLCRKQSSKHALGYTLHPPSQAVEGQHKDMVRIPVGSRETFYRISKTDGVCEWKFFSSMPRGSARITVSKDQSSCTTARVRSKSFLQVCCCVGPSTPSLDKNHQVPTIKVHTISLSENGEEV
Cc1cc(C)c(-n2ccn3nc(-c4cccnc4)cc23)cc1NC(=O)c1cc(C#N)cc(S(F)(F)(F)(F)F)c1: -3.02%
COc1cccc(CNC(=O)c2nc3scc(COCc4ccc(C(=O)O)cc4)c3c(=O)[nH]2)c1: -1.51%
Cc1c(NC(=O)c2cc(C(N)=O)nc3cc(F)ccc23)c(C(F)(F)F)nn1Cc1ccc(C(C)(C)C)cc1: 5.25%
Cc1c[nH]c2nccc(Oc3c(F)cc(Nc4cc(Cl)nc(N)n4)cc3F)c12: -7.18%
O=C(Nc1ccc(-n2nc(-c3cccnc3)cc2C(F)(F)F)cn1)c1ccc(-c2ccccc2)c(F)c1: 1.9%
C[C@H](NC(=O)c1cnc2n1[C@](C)(Cc1ccc(C#N)cc1)C(=O)N2c1cc(Cl)c(F)c(Cl)c1)C(=O)NC1(c2ccccn2)CC1: -8.89%
Cc1nccc(COC(=O)N2C[C@@H]3[C@@H](CNC(=O)c4ccc5[nH]nnc5c4)[C@@H]3C2)n1: -3.15%
COc1cc(-c2cn(C3CCc4ccccc4N(CC(F)(F)F)C3=O)nn2)ccc1-n1ccc(C)n1 (centres unmarked): -27.3%
COCCc1ccc(-c2c(C)nc3c(N4CCOCC4)ccnn23)cn1: 23%
CC(=O)Nc1nc(CN2CCC[C@H](Cc3cc(C)nc(C)c3)C2)cs1: -1.89%
Cc1nc(N2CC[C@@H](O)C2)ncc1-c1cc(C(F)(F)F)cc2[nH]ncc12: 15.7%
CN([C@@H]1CCc2c(CC(=O)O)c3cc(S(C)(=O)=O)ccc3n2C1)S(=O)(=O)c1ccc(F)cc1: -12%
Nc1c(C(=O)NCc2ccc(C(=O)NCCCC3CCCCC3)cc2)cnn1-c1ccccc1: 36.9%
O=C(Nc1cccnn1)N1CC(CC=Cc2cncc(Oc3ccc(C(F)(F)F)cn3)n2)C1: -14.3%
O=C(Nc1cccnn1)N1CCC(=Cc2cccc(Oc3ccc(C(F)(F)F)cn3)c2)CC1: 10.3%
Cc1nc(C2CCN(C(=O)c3ccc(OC(F)(F)F)cc3N)CC2)c2ncc(N3CCN(C)CC3)cc2n1: -9.85%
CC1=C(C#N)[C@@H](c2ccc3[nH]nc(C)c3c2)C(C#N)=C(c2ccc(Cl)cc2)N1: -11%
O=C1c2ccc(Nc3ccc(F)cc3F)cc2CCc2ccc(OC[C@H](O)CO)cc21: 21.8%
CN(C)C(=O)Cn1cc(-c2nc([C@@](C)(c3ccc(-c4cnc(N)nc4)cc3)C3CC3)no2)cn1: 4.68%
CC(=O)N1CCC(c2ccc(C(=O)NC(=N)N)cc2C(F)(F)F)CC1: 6.05%
CNC(=O)c1ccc(Nc2ncc(C(F)(F)F)c(NCc3nccnc3N(C)S(C)(=O)=O)n2)cc1: -4.42%

Set 5
Target: Calcium/calmodulin-dependent protein kinase type II subunit alpha (CAMK2A, Homo sapiens, UniProt Q9UQM7)
Sequence of UniProt Q9UQM7 (whole entry, looked up): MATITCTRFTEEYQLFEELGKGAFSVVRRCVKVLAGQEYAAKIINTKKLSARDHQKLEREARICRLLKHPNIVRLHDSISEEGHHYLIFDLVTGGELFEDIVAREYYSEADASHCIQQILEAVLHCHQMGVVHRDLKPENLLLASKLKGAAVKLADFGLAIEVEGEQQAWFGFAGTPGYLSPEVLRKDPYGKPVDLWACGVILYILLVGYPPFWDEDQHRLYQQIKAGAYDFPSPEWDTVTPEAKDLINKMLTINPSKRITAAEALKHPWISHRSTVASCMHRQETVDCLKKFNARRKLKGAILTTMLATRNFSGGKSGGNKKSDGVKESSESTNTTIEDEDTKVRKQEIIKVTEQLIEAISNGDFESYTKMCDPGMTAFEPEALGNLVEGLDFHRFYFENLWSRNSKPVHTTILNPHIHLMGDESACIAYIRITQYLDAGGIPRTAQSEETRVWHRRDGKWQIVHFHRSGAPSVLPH
Effect on: enzyme activity
Action: inhibitor
Concentration: 10 µM
Measurement: inhibition
O=C(O)C(O)c1ccc(O)c(O)c1 (centres unmarked): 5%
C[C@H](CO[C@@H]1O[C@H](CO)[C@@H](O)[C@H](O)[C@H]1O)[C@H]1CC[C@@]2(CC[C@]3(C)[C@H](CC[C@@H]4[C@@]5(C)CC[C@H](O[C@@H]6O[C@H](CO)[C@@H](O)[C@H](O)[C@H]6O[C@@H]6OC[C@@H](O)[C@H](O)[C@H]6O)[C@@](C)(CO)[C@@H]5CC[C@]43C)[C@H]2O)CO1: -2%
O=C1c2ccccc2C(=O)c2cc(O)ccc21: -21%
COc1cc(-c2c3c(c(O)c4cc5c(cc24)OCO5)COC3=O)cc(OC)c1OC: -1%
O=c1cc(CCc2ccccc2)oc2c1[C@H](O)[C@@H](O)[C@@H](O)[C@@H]2O: -4%

Set 6
Cell line: HaCaT
Concentration: 100 µM
Time: 18 h
Measurement: viability
CC(=O)O[C@H]1C[C@@]2(C)[C@@H](C[C@@H](O)[C@H]3[C@@]4(C)CC[C@@H](O)[C@@H](C)[C@@H]4CC[C@@]32C)/C1=C(\CCC=C(C)C)C(=O)O: 99.4%
CCC[C@@H]1C[C@@H](C(=O)N[C@@H]([C@H]2O[C@H](SC)[C@H](O)[C@@H](O)[C@H]2O)[C@@H](C)O)N(C)C1: 102%
CC1(C)O[C@@H]2C[C@H]3[C@@H]4CCC5=CC(=O)C=C[C@]5(C)[C@@]4(F)[C@@H](O)C[C@]3(C)[C@]2(C(=O)CO)O1: 96.1%

Set 7
Cell line: mouse MPNST tumor cells
Technique: high-content nuclear imaging
Item: cell number
Concentration: 10 µM
Time: 12 h
Notes: mean of 2 replicates
Relative to: plate mean
Reading: higher = more cells
Measurement: nuclei count
C[C@]12C[C@H](O)[C@H]3[C@@H](CCC4=CC(=O)CC[C@@]43C)[C@@H]1CC[C@@H]2C(=O)CO: 3.14 z-score and 1.62 z-score
CC[C@H]1OC(=O)[C@H](C)[C@@H](O[C@H]2C[C@@](C)(OC)[C@@H](O)[C@H](C)O2)[C@H](C)[C@@H](O[C@@H]2O[C@H](C)C[C@H](N(C)C)[C@H]2O)[C@](C)(O)C[C@@H](C)CN(C)[C@H](C)[C@@H](O)[C@]1(C)O: 2.75 z-score and 4.02 z-score and 2.61 z-score
CS(=O)(=O)NCC1CCC(Nc2nc3c(s2)CCSc2ccccc2-3)CC1 (centres unmarked): 2.88 z-score
